Measurements pooled from the literature.
Numbers after ± are the reported error.
Chain of UniProt P11712 (whole entry, looked up): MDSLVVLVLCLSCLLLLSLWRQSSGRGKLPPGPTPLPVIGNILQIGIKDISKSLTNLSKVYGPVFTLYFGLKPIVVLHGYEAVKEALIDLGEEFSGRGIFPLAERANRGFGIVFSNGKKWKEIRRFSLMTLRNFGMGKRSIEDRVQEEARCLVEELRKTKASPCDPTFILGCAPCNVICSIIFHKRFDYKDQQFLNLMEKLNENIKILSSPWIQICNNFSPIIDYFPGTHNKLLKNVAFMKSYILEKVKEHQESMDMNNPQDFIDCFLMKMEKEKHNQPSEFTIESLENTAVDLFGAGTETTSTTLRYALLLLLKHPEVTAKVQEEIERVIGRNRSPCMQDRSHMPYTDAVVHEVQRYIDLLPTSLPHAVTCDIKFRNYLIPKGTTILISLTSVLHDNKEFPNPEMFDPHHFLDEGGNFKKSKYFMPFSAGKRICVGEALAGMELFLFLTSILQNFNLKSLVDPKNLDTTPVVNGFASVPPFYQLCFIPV
Chain of UniProt P11509 (whole entry, looked up): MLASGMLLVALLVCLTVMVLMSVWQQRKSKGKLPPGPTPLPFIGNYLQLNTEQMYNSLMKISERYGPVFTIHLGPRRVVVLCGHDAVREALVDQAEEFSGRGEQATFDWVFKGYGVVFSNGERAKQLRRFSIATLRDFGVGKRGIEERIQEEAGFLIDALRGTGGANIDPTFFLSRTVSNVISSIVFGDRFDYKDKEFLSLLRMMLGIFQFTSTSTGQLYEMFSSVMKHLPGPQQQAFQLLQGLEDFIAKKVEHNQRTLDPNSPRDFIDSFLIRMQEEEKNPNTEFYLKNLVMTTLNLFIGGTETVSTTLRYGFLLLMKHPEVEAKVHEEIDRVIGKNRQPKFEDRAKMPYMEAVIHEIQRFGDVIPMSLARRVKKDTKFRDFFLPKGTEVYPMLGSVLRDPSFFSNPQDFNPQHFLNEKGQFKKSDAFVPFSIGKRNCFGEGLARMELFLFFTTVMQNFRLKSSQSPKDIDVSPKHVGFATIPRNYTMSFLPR
Chain of UniProt O75469 (whole entry, looked up): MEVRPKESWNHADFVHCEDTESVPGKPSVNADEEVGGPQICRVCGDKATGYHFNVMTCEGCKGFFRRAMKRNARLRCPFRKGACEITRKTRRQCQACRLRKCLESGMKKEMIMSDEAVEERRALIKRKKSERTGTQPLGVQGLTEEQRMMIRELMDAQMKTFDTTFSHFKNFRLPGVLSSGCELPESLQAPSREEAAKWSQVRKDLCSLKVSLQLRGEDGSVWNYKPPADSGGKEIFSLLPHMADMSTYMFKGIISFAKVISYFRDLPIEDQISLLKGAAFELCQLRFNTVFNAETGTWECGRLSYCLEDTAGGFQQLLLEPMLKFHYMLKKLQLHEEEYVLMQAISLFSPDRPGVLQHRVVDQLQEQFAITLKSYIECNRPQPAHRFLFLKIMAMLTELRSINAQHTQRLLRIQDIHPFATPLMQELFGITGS
Chain of UniProt P46721 (whole entry, looked up): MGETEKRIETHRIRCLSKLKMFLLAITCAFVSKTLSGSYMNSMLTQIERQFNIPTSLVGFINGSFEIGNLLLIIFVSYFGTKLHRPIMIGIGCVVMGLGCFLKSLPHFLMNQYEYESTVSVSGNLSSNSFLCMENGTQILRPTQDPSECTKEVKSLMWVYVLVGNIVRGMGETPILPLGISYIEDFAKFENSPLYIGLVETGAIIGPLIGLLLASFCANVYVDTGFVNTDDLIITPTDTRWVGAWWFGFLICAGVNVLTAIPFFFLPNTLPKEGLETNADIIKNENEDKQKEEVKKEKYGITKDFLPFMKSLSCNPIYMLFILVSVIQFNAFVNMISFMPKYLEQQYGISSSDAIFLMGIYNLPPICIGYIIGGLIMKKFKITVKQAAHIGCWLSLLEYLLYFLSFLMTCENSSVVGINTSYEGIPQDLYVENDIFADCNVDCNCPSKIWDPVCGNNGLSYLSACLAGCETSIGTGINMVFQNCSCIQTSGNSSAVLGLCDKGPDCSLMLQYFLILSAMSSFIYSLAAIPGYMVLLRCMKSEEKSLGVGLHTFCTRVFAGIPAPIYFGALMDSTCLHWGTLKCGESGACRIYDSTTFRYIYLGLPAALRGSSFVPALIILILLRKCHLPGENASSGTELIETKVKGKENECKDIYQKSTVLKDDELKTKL
Chain of UniProt P08246 (whole entry, looked up): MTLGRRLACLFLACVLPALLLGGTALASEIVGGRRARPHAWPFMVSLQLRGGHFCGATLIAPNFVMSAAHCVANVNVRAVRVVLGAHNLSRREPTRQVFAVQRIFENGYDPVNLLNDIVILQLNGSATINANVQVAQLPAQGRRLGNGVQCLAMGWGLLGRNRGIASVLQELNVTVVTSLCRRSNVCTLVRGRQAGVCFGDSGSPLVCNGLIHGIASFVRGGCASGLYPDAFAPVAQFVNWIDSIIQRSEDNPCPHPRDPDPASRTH
Chain of UniProt P08682 (whole entry, looked up): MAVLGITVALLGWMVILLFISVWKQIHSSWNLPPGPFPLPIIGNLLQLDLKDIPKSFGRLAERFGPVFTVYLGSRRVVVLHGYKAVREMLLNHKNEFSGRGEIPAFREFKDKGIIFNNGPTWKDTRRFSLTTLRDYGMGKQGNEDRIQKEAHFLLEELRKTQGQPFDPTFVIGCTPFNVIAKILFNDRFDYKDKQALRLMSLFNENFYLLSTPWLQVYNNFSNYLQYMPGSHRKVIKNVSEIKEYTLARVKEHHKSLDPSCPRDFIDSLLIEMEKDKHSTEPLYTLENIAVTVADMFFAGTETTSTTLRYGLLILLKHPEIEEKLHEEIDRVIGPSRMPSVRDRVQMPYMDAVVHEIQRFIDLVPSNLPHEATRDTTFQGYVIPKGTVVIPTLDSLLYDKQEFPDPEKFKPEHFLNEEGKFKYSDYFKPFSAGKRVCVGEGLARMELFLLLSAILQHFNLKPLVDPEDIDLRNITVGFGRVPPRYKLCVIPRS

SMILES | tested on | test | system | conditions | how to read | endpoint | value
Clc1ccc(-c2c(Cl)c(Cl)c(Cl)c(Cl)c2Cl)cc1Cl | PXR (polar bear) | reporter gene, agonist, luciferase | COS-7 | 24 h | reference: DMSO | fold induction | 1.8 ± 0.3 fold
CN[C@@](C)(C[18F])C(=O)O | MDA-MB-468 tumour model |  | host not given, liver | 15 min, tumour-bearing |  | tracer uptake | 6.9 %ID/g
c1cn[nH]c1 | CYP2E1 (Oryctolagus cuniculus, UniProt P08682) | inhibitor |  | pH 7.4, 37 °C, cooperative site, added: 4-nitrophenol |  | Ki | 98 µM
CC[N+]1=C(C=CC=CC=C2N(CCCCCC(=O)NCCN3C(=O)CC(SC[C@@H](NC(=O)[C@@H](CCCNC(=N)N)NC(=O)[C@@H](CCCNC(=N)N)NC(=O)[C@@H](CCCNC(=N)N)NC(=O)[C@@H](CCCNC(=N)N)NC(=O)[C@@H](CCCNC(=N)N)NC(=O)[C@@H](CCCNC(=N)N)NC(=O)[C@@H](CCCNC(=N)N)NC(=O)[C@@H](CCCNC(=N)N)NC(=O)[C@@H](CCCNC(=N)N)NC(=O)[C@H](CC(C)C)NC(=O)[C@H](CCCCN)NC(=O)[C@H](CC(C)C)NC(=O)[C@H](CCC(N)=O)NC(=O)[C@H](CC(C)C)NC(=O)[C@H](CCCNC(=N)N)NC(=O)CCCCCNC(=O)[C@@H](CCC(=O)O)NC(=O)[C@@H](CCC(=O)O)NC(=O)[C@@H](CCC(=O)O)NC(=O)[C@@H](CCC(=O)O)NC(=O)[C@@H](CCC(=O)O)NC(=O)[C@@H](CCC(=O)O)NC(=O)[C@@H](CCC(=O)O)NC(=O)[C@@H](CCC(=O)O)NC(=O)[C@H](N)CCC(=O)O)C(N)=O)C3=O)c3ccc(S(=O)(=O)O)cc3C2(C)C)C(C)(C)c2cc(S(=O)(=O)[O-])ccc21 (stereo partly drawn) | Neutrophil elastase (ELANE, Homo sapiens, UniProt P08246) | substrate |  | 5 µM, 2 h |  | cleavage | 79 ± 2.8%
C=C(C)[C@@H]1CCC(C)=C[C@H]1c1c(O)cc(CCCCC)cc1O | Cytochrome P450 2A6 (CYP2A6, Homo sapiens, UniProt P11509) | nicotine demethylation to nornicotine, inhibitor | microsomes of overexpressing HEK293 cells | 1 µM, 30 min, pH 7.4, added: nicotine 50 µM |  | inhibition | 60%
CSCC[C@H](NC(=O)[C@H](CCCCN)NC(=O)CCCCCNC(=O)[C@@H](N)CCCCNC(=O)CCCC[C@@H]1SC[C@@H]2NC(=O)N[C@@H]21)C(=O)N[C@H](C(=O)N[C@@H](Cc1ccccc1)C(=O)N[C@@H](CC(C)C)C(=O)N[C@@H](Cc1ccccc1)C(=O)N[C@H]1CSSC(C)(C)[C@@H](C(=O)N[C@@H](CCCCN)C(N)=O)NC(=O)[C@H](CC(=O)O)NC(=O)[C@H](CCCCN)NC(=O)[C@H](Cc2ccc(O)cc2)NC(=O)[C@H]([C@@H](C)O)NC(=O)[C@H](Cc2ccccc2)NC(=O)[C@H](CC(N)=O)NC1=O)[C@@H](C)O | Chymotrypsinogen A (Bos taurus, UniProt P00766) | proteolytic stability, LC-MS | PBS | 0.5 mg/mL, up to 240 min, peptide to protease 50:1 by mass, added: Chymotrypsinogen A at 0.01 mg/mL |  | half-life | 5 min
CC(C)(O)c1ccccc1CC[C@@H](SCC1(CC(=O)O)CC1)c1cccc(/C=C/c2ccc3ccc(Cl)cc3n2)c1 | Cytochrome P450 2C9 (CYP2C9, Homo sapiens, UniProt P11712) | inhibitor | human liver microsomes | 2 µM, pH 7.4, added: diclofenac |  | inhibition | 68.8%
CC(C)(c1cc(Br)c(O)c(Br)c1)c1cc(Br)c(O)c(Br)c1 | NR1I2 (Homo sapiens, UniProt O75469) | reporter gene, agonist, luciferase | COS-7 | 24 h | reference: DMSO | fold induction | 3.1 ± 1.1 fold
C[C@]12CC[C@@H]3c4ccc(OS(=O)(=O)O)cc4CC[C@H]3[C@@H]1CCC2=O | SLCO1A2 (Homo sapiens, UniProt P46721) | substrate | HEK293 overexpressing OATP1A2 |  | reference: vector control | cellular uptake | increased
